Measurements pooled from the literature.
Lines come from different studies, so protocols differ. ± gives the spread as reported.
FPR2: N-formyl peptide receptor 2 (FPR2, Homo sapiens, UniProt P25090)
Sequence of UniProt P25090 (whole entry, looked up): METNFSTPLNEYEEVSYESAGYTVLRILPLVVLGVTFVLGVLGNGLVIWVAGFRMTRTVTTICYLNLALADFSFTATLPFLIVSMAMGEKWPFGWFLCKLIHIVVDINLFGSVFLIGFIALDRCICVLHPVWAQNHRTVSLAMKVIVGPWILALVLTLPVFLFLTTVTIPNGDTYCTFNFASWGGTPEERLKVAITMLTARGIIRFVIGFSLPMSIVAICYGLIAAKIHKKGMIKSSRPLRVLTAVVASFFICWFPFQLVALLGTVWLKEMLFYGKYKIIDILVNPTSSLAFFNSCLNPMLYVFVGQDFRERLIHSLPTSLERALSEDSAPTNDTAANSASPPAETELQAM
Sequence of UniProt Q09470 (whole entry, looked up): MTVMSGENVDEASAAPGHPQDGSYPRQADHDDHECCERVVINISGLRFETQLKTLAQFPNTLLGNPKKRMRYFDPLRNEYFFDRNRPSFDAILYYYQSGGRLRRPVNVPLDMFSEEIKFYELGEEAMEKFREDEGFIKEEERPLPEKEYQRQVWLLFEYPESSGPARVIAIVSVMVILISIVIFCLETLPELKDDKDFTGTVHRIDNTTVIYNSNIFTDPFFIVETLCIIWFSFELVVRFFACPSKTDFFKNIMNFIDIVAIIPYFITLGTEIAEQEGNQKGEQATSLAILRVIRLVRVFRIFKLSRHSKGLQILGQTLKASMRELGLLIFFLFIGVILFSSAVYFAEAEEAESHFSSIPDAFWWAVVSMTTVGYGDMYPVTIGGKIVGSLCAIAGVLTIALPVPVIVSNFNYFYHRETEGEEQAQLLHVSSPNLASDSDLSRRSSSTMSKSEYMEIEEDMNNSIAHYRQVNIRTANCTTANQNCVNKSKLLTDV
Sequence of UniProt P41594 (whole entry, looked up): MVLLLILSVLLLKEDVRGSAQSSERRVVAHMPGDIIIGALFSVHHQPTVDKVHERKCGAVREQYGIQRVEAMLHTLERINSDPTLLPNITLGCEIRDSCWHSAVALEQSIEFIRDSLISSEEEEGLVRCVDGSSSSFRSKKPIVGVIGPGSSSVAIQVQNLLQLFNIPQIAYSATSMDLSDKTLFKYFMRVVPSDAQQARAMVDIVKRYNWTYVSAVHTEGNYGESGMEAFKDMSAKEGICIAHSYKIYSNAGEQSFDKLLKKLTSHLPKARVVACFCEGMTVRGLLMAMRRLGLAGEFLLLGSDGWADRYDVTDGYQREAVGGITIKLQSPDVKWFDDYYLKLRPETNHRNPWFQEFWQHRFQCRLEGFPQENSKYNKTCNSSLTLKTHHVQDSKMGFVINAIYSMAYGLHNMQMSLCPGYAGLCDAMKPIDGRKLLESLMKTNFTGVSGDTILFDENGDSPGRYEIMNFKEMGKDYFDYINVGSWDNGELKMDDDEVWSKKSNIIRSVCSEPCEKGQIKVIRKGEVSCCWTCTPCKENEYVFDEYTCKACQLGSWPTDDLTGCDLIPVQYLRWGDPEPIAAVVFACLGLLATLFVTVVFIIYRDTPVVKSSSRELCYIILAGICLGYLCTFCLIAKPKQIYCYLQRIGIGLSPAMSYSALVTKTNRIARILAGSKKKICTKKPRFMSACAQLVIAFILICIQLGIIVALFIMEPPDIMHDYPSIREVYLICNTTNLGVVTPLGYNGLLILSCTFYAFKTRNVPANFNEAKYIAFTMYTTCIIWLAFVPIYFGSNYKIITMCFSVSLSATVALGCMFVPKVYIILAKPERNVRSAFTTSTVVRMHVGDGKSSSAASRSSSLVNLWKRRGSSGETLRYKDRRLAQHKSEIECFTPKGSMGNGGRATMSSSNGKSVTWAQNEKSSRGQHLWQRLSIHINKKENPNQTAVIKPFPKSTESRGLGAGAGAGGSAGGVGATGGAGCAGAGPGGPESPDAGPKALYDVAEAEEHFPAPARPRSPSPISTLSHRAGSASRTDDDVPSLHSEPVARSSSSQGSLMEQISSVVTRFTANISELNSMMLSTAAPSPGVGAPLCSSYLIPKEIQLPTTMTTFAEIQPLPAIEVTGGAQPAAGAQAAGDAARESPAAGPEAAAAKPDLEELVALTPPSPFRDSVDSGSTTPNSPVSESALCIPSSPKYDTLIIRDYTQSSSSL
Sequence of UniProt Q99500 (whole entry, looked up): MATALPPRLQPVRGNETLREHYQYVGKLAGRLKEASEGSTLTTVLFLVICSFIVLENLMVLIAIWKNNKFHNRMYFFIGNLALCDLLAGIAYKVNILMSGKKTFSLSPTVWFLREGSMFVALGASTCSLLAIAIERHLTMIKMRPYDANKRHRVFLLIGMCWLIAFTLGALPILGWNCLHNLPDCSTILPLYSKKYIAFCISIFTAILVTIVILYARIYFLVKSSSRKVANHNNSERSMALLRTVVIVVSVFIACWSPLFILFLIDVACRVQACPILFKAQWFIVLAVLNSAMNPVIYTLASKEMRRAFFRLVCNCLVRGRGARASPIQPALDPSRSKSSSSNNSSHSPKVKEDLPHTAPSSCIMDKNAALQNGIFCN
Sequence of UniProt Q13255 (whole entry, looked up): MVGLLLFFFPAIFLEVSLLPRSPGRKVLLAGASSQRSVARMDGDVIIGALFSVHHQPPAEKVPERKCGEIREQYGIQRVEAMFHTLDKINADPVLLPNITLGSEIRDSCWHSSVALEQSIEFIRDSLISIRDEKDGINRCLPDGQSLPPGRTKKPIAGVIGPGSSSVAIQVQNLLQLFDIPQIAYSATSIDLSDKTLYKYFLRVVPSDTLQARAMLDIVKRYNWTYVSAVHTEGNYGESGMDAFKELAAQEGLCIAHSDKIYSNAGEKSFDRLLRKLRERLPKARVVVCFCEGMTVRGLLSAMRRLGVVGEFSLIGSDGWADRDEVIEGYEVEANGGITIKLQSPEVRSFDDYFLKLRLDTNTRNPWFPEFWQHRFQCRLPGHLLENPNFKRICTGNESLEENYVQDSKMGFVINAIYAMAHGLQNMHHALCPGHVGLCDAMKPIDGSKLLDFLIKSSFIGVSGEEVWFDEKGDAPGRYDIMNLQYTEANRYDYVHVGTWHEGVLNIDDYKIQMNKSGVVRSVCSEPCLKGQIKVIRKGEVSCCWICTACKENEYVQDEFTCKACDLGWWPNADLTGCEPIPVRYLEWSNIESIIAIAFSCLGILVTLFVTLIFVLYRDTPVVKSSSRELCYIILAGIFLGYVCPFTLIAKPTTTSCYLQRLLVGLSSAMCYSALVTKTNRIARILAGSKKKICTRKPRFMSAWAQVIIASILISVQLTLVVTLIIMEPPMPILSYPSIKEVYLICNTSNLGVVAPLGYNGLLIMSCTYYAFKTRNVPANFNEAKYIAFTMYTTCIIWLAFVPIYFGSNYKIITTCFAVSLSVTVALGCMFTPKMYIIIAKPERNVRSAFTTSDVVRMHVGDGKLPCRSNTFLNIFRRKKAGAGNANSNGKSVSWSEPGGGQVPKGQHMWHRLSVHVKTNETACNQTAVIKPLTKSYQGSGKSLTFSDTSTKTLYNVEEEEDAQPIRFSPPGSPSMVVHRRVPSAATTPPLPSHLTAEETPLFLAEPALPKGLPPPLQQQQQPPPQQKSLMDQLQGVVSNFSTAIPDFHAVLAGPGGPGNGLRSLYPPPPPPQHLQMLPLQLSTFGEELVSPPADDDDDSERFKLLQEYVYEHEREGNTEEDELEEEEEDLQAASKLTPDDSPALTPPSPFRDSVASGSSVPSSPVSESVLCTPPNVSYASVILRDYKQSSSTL
Sequence of UniProt P10644 (whole entry, looked up): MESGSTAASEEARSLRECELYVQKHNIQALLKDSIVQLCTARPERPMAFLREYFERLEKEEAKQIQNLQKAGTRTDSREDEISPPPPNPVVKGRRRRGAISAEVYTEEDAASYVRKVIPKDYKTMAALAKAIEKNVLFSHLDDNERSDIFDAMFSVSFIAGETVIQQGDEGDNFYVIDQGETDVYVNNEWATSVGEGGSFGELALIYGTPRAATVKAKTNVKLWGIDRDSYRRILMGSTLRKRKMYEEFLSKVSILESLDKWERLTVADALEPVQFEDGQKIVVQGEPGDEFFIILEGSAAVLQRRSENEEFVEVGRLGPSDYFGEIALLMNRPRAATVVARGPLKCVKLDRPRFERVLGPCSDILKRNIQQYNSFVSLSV

Structure (SMILES) | tested on | assay | system | setting | quantity | result
CSCC[C@H](NC=O)C(=O)N[C@@H](CC(C)C)C(=O)N[C@@H](Cc1ccccc1)C(=O)N[C@@H](Cc1ccccc1)C(=O)O | FPR2 | binding, competitor | RBL | 4 °C, added: 5 nM WK(FL)YMVm | EC50 | > 6.7 µM
C[n+]1cn([C@@H]2O[C@H](COP(=O)([O-])OP(=O)(O)CP(=O)(O)O)[C@@H](O)[C@H]2O)c2nc(N)nc(O)c21 |  | cap-dependent translation, inhibitor | rabbit reticulocyte lysate | 60 min, 30 °C, no preincubation | IC50 | 8.09 ± 1.18 µM
Nc1ncnc2c1nc(NCCCCCCNC(=O)C[C@H](NC(=O)c1ccc(C3(C(F)(F)F)N=N3)cc1)C(=O)NCCCOCCOCCOCCCNC(=O)CCCC[C@@H]1SC[C@@H]3NC(=O)N[C@@H]31)n2[C@@H]1O[C@@H]2COP(=O)(O)O[C@H]2[C@H]1O | PRKAR1A (Homo sapiens, UniProt P10644) | activator |  |  | EC50 | 0.0258 µM
CCCCOc1nc(N)c2[nH]c(=O)n(CCCN(CCCN3CCOCC3)Cc3cccc(CC(=O)O)c3)c2n1 | Toll-like receptor 7 (Rattus norvegicus, UniProt A5H2Z9) | reporter gene, agonist | HEK293 NF-kB SEAP reporter |  | EC50 | > 10 µM
CC(C)c1cc2c(cc1O)[C@@]1(C(=O)O)CCCC(C)(C)[C@@H]1CC2 | KCNA1 (Homo sapiens, UniProt Q09470) |  | human cells |  | EC50 | 12 µM
CCc1nc(-c2ccc(-c3ccc(CCC(N)(CO)COP(=O)(O)O)cc3)cc2)co1 (stereo not shown) | S1PR3 (Homo sapiens, UniProt Q99500) | β-arrestin recruitment, agonist |  |  | EC50 | > 5 µM
COc1cccc(Cc2cc(CCC(=O)NCCNc3cccc4c(S(=O)(=O)O)cccc34)nn(CC(=O)Nc3ccc(Br)cc3)c2=O)c1 | FPR2 | calcium mobilization, agonist | HL-60 transfected with target |  | EC50 | 1.4 ± 0.7 µM
O=C(Nc1ccc(N2C(=O)c3ccc(Cl)cc3C2=O)c(Cl)c1)c1ncccc1Cl | GRM1 (Homo sapiens, UniProt Q13255) | calcium mobilization, positive allosteric modulator | T-REx-293 | added: glutamate EC20 | EC50 | 1.84 µM
Cc1ccc(Oc2cc(C(=O)NC3CC(F)C3)nc3ccsc23)cn1 (stereo not shown) | GRM5 (Homo sapiens, UniProt P41594) | calcium flux, positive allosteric modulator |  | added: glutamate EC20 | EC50 | 9.7 µM
C[N+](C)(CBr)CCO | TMA lyase | TMA production, ex vivo | Proteus mirabilis, wild type |  | EC50 | 0.04 µM
Cc1cccc(-c2ccc([C@@H]3[C@@H](CO)N4CCCCN(S(=O)(=O)c5nccn5C)C[C@@H]34)cc2)c1C | IDE (Homo sapiens, UniProt P14735) |  |  |  | EC50 | 0.0005 µM
C[n+]1cn([C@@H]2O[C@H](COP(=O)(O)OP(=O)([O-])OP(=O)(O)O)[C@@H](O)[C@H]2O)c2nc(N)nc(O)c21 |  | cap-dependent translation, inhibitor | rabbit reticulocyte lysate | 60 min, 30 °C, no preincubation | IC50 | 3.52 ± 0.25 µM
C[N+](C)(CF)CCO | TMA lyase | TMA production, ex vivo | Proteus mirabilis, wild type |  | EC50 | 0.056 µM

A few entries again:
Structure (SMILES) | tested on | assay | system | setting | quantity | result
C[n+]1cn([C@@H]2O[C@H](COP(=O)(O)OP(=O)([O-])OP(=O)(O)O)[C@@H](O)[C@H]2O)c2nc(N)nc(O)c21 |  | cap-dependent translation, inhibitor | rabbit reticulocyte lysate | 60 min, 30 °C, no preincubation | IC50 | 3.52 ± 0.25 µM
C[N+](C)(CF)CCO | TMA lyase | TMA production, ex vivo | Proteus mirabilis, wild type |  | EC50 | 0.056 µM
